Experimental data collected from several papers.
Every numbered part comes from another study and shows a few of its results, in no order. “And” joins repeats or separate records; there may be more than shown. pIC50: −log10 of the molar value.

Set 1
SMILES: CN(C1COC1)C(C)(C)/C=C(\C#N)C(=O)N1CCC[C@H]1Cn1nc(-c2ccc(Oc3ccccc3)cc2F)c2c(N)ncnc21
target | effect on | concentration | notes | inhibition [%]
Casein kinase II subunit alpha (CSNK2A1, Homo sapiens, UniProt P68400) | kinase activity | 0.1 µM |  | -8
cGMP-dependent protein kinase 1 (PRKG1, Homo sapiens, UniProt Q13976) | kinase activity | 0.1 µM |  | 0
Dual specificity tyrosine-phosphorylation-regulated kinase 1A (DYRK1A, Homo sapiens, UniProt Q13627) | kinase activity | 1 µM |  | -2
Serine/threonine-protein kinase D3 (PRKD3, Homo sapiens, UniProt O94806) | kinase activity | 1 µM |  | 3
Ribosomal protein S6 kinase alpha-1 (RPS6KA1, Homo sapiens, UniProt Q15418) | kinase activity | 1 µM |  | -2
Serine/threonine-protein kinase Chk1 (CHEK1, Homo sapiens, UniProt O14757) | kinase activity | 1 µM |  | 5
Tyrosine-protein kinase HCK (HCK, Homo sapiens, UniProt P08631) | kinase activity | 1 µM |  | 32
Serine/threonine-protein kinase LATS2 (LATS2, Homo sapiens, UniProt Q9NRM7) | kinase activity | 0.1 µM |  | 3
Fibroblast growth factor receptor 2 (FGFR2, Homo sapiens, UniProt P21802) | kinase activity | 0.1 µM |  | 9
Glycogen synthase kinase-3 beta (GSK3B, Homo sapiens, UniProt P49841) | kinase activity | 0.1 µM |  | -11
CK1 |  | 1 µM | mean | 0
Eukaryotic translation initiation factor 2-alpha kinase 3 (EIF2AK3, Homo sapiens, UniProt Q9NZJ5) | kinase activity | 1 µM |  | 2
Dual specificity protein kinase CLK1 (CLK1, Homo sapiens, UniProt P49759) | kinase activity | 0.1 µM |  | 2
Ephrin type-B receptor 4 (EPHB4, Homo sapiens, UniProt P54760) | kinase activity | 0.1 µM |  | -1
Serine/threonine-protein kinase PLK4 (PLK4, Homo sapiens, UniProt O00444) | kinase activity | 1 µM |  | -3

Set 2 — action: inhibitor; method: FLIPR membrane potential; cells: CHO-BC cells; notes: first repeat
Target: Sodium-dependent neutral amino acid transporter B(0)AT1 (SLC6A19, Homo sapiens, UniProt Q695T7)
Chain of UniProt Q695T7 (whole entry, looked up): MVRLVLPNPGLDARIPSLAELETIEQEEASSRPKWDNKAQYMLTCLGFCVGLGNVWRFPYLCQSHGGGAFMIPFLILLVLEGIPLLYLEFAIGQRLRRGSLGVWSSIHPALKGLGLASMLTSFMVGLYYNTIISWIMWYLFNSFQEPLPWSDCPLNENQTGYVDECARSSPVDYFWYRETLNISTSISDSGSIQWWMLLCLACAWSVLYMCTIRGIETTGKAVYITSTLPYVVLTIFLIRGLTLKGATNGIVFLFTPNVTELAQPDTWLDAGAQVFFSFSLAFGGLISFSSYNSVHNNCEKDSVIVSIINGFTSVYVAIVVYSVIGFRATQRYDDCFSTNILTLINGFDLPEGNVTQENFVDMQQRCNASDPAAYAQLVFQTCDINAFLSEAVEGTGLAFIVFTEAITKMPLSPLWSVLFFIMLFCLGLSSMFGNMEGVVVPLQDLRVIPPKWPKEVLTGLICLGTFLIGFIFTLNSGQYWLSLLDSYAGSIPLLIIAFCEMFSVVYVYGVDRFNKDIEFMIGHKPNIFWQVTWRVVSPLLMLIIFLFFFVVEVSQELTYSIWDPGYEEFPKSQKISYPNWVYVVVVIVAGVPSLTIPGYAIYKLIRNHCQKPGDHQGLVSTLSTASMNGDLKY
SMILES | pIC50
Cc1cc(OCC(=O)NC(C)C)ccc1Br | 6.37
CC(C)NC(=O)COc1ccc2ccccc2c1 | 5.71
CC(C)NC(=O)COc1cccc2ccccc12 | 5.87
Cc1cc(NCC(=O)NC(C)C)cc(C)c1Br | 6.41
Cc1cc(OCC(=O)NC(C)C)ccc1Cl | 6.34
Cc1cc(NCC(=O)NC(C)C)cc(C)c1Cl | 6.89
Cc1cc(NCC(=O)NC(C)C)cc(C)c1I | 7.00
Cc1cc(OCC(=O)NC(C)C)ccc1I | 6.48

Set 3 — effect on: thermal unfolding; method: differential scanning fluorimetry; concentration: 5.5 µM; direction: higher = more unfolded
SMILES: C[C@@H]1CN(c2ccc(-c3cc(C(=O)NCCOCCOCCOCCOCCOCCOCCNC(=O)/C=C/c4[nH]cc(C(=O)N[C@@H](CC(N)=O)c5ccc(F)c(Cl)c5)c4-c4ccc(Cl)cc4F)ccc3F)cc2NC(=O)c2ccc(F)cc2C(F)(F)F)C[C@H](C)N1C
WDR5: WD repeat-containing protein 5 (WDR5, Homo sapiens, UniProt P61964)
DCAF1: DDB1- and CUL4-associated factor 1 (DCAF1, Homo sapiens, UniProt Q9Y4B6)
Chain of UniProt Q9Y4B6 (whole entry, looked up): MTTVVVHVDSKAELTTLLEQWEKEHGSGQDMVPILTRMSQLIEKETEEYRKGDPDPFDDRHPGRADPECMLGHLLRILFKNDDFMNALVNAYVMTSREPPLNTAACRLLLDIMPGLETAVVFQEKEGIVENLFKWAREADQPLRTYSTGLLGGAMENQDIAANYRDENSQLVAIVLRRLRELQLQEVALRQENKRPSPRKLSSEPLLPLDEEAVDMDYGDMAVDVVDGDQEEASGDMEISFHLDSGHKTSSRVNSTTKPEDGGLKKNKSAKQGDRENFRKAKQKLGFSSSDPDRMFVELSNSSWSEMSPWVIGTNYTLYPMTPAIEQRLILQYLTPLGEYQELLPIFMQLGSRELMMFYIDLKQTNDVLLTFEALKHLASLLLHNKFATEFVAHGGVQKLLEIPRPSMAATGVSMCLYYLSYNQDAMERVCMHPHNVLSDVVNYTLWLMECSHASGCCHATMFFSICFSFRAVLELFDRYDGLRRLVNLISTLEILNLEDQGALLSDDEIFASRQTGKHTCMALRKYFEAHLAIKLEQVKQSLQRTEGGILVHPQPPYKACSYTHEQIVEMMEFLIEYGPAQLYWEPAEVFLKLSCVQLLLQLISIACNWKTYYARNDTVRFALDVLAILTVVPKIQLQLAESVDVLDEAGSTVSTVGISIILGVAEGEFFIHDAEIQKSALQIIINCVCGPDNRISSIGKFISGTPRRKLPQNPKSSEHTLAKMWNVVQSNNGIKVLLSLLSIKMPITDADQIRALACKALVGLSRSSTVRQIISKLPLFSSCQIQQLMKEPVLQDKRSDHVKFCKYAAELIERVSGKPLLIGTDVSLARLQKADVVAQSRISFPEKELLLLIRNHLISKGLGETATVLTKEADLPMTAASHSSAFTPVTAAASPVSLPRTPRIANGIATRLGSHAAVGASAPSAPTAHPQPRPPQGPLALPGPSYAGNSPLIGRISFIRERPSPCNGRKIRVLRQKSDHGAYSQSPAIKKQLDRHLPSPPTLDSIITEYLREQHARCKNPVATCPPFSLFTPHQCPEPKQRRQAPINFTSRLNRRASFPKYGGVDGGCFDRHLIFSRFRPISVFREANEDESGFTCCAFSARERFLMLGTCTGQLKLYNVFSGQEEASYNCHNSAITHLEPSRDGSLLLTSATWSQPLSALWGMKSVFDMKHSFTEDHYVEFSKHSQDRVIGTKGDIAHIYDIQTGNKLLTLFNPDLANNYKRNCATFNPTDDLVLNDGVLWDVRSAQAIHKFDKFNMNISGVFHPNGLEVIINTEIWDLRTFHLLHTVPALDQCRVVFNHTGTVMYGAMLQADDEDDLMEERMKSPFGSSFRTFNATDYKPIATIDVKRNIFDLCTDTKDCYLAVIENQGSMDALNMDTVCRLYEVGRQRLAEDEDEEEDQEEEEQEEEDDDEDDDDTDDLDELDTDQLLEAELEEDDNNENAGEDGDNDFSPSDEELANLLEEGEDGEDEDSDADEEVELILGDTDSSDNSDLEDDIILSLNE
target | temperature | SYPRO Orange fluorescence
WDR5 | 53.41 °C | 16600 a.u.
DCAF1 | 67.81 °C | 50500 a.u.
WDR5 | 62.81 °C | 15400 a.u.
WDR5 | 92.41 °C | 51200 a.u.
DCAF1 | 73.21 °C | 45600 a.u.
WDR5 | 60.81 °C | 15200 a.u.
WDR5 | 87.61 °C | 58400 a.u.
WDR5 | 34.2 °C | 13800 a.u.
DCAF1 | 87.21 °C | 34200 a.u.
DCAF1 | 57.21 °C | 35100 a.u.
WDR5 | 37.4 °C | 13800 a.u.

Set 4 — effect on: enzyme activity; action: inhibitor; method: ADP detection
Structure (SMILES): CCN(CC)CC(=O)N1CCN(c2nc(NCc3nc4cc(Cl)c(Cl)cc4[nH]3)c3ncn(CC)c3n2)CC1
CDK13: Cyclin-dependent kinase 13 (CDK13, Homo sapiens, UniProt Q14004)
Chain of UniProt Q14004 (whole entry, looked up): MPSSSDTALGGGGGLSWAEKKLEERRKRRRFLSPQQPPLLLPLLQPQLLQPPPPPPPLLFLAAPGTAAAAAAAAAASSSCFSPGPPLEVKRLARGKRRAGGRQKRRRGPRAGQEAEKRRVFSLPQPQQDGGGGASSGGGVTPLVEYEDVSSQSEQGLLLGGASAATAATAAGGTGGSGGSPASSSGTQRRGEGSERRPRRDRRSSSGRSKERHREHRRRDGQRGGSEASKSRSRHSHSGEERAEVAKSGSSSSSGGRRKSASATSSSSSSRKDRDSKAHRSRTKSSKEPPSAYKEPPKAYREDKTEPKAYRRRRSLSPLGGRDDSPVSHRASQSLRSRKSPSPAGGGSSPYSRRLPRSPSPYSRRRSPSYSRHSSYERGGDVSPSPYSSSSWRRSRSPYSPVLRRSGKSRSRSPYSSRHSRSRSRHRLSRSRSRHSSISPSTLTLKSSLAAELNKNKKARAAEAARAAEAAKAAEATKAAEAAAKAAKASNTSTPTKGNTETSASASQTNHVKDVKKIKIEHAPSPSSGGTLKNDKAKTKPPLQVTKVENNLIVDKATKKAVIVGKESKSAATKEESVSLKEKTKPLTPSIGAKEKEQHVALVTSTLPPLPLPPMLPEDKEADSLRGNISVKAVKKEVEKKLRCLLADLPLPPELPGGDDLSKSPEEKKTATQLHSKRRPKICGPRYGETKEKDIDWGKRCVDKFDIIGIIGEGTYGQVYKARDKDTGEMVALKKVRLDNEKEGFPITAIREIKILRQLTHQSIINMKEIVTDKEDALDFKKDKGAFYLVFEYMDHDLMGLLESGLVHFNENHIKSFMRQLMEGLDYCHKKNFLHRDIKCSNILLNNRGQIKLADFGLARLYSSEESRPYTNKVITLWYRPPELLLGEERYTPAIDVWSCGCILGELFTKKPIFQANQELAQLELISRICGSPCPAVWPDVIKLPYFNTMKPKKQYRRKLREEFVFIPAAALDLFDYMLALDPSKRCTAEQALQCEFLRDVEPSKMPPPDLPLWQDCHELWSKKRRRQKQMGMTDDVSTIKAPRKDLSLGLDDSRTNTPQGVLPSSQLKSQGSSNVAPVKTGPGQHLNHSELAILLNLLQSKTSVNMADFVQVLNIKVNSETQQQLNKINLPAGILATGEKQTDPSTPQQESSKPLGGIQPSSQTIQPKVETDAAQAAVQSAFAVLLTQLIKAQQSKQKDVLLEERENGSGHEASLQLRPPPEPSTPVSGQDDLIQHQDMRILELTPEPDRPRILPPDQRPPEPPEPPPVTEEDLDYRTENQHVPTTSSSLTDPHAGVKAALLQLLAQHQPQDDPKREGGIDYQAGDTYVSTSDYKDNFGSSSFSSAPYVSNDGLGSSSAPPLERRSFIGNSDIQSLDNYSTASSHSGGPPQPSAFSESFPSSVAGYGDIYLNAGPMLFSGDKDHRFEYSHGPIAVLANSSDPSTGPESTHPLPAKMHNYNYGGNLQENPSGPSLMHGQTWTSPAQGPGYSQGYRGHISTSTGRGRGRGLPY
CDK9: Cyclin-dependent kinase 9 (CDK9, Homo sapiens, UniProt P50750)
Chain of UniProt P50750 (whole entry, looked up): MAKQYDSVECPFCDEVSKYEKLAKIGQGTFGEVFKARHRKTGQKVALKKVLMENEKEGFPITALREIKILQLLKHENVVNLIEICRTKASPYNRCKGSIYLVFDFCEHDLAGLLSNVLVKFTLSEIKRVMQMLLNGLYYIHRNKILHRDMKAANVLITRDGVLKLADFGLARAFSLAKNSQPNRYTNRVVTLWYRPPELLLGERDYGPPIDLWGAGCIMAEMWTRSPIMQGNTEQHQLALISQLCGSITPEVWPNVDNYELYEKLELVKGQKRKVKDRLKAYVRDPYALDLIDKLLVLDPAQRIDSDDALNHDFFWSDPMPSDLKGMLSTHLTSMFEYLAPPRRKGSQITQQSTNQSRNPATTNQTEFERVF
CDK2: Cyclin-dependent kinase 2 (CDK2, Homo sapiens, UniProt P24941)
target | concentration | inhibition
CDK13 | 13.7 nM | -4.1%
CDK9 | 41.2 nM | -1.2%
CDK13 | 41.2 nM | 8.2%
CDK9 | 10 µM | 87.7%
CDK2 | 1.5 nM | 2.4%
CDK13 | 10 µM | 87%
CDK9 | 13.7 nM | -3.6%
CDK2 | 500 pM | 5.4%

Set 5 — cell line: U-87 MG; concentration: concentration not given; reference: DMSO
SMILES: CCN1/C(=C/C=C2\CCCC(/C=C/C3=[N+](CC)c4ccccc4C3(C)C)=C2NCCCCCCCCN2CCC(Nc3nc4ccccc4n3Cc3ccc(F)cc3)CC2)C(C)(C)c2ccccc21
item | log2 fold change
PCDHB7 mRNA | -2.32
PLA2G4C mRNA | 1.8
PKDCC mRNA | -1.92
PNPLA8 mRNA | 1.31
HSPA9 mRNA | 0.978
FOXO3 mRNA | 0.825
MIS18A mRNA | -1.08
AKR1C1 mRNA | 1.02
TMCC3 mRNA | 2.42
LDAF1 mRNA | 2.1
HDAC9 mRNA | 1.9
SEPHS2 mRNA | 1.23
LRR1 mRNA | -1.33
MOK mRNA | -1.92
LRRC32 mRNA | -2.49
NFE2 mRNA | -3.88

Set 6 — Compound: O=C(Nc1ccccc1)Nc1cccc(Oc2ccc3nccn3n2)c1; concentration: 1 µM
target | effect on | method | remaining binding [%]
Mitogen-activated protein kinase kinase kinase 9 (MAP3K9, Homo sapiens, UniProt P80192) | binding |  | 100
Protein-tyrosine kinase 6 (PTK6, Homo sapiens, UniProt Q13882) | binding | competition with immobilised ligand | 100
Serine/threonine-protein kinase Sgk1 (SGK1, Homo sapiens, UniProt O00141) | binding |  | 100
Ephrin type-B receptor 2 (EPHB2, Homo sapiens, UniProt P29323) | binding | competition with immobilised ligand | 97
Phosphatidylinositol 4,5-bisphosphate 3-kinase catalytic subunit alpha isoform (PIK3CA, Homo sapiens, UniProt P42336, E542K) | binding |  | 99
Serine/threonine-protein kinase OSR1 (OXSR1, Homo sapiens, UniProt O95747) | binding |  | 100
LIM domain kinase 2 (LIMK2, Homo sapiens, UniProt P53671) | binding | competition with immobilised ligand | 100
Leucine-rich repeat serine/threonine-protein kinase 2 (LRRK2, Homo sapiens, UniProt Q5S007, G2019S) | binding |  | 39
Serine/threonine-protein kinase D3 (PRKD3, Homo sapiens, UniProt O94806) | binding |  | 100
Fibroblast growth factor receptor 1 (FGFR1, Homo sapiens, UniProt P11362) | binding | competition with immobilised ligand | 87
Serine/threonine-protein kinase Chk1 (CHEK1, Homo sapiens, UniProt O14757) | binding |  | 100
Activin receptor type-2B (ACVR2B, Homo sapiens, UniProt Q13705) | binding | competition with immobilised ligand | 94
Vascular endothelial growth factor receptor 1 (FLT1, Homo sapiens, UniProt P17948) | binding | competition with immobilised ligand | 3.2
Interleukin-1 receptor-associated kinase 1 (IRAK1, Homo sapiens, UniProt P51617) | binding |  | 91
Ephrin type-B receptor 4 (EPHB4, Homo sapiens, UniProt P54760) | binding | competition with immobilised ligand | 90
Homeodomain-interacting protein kinase 2 (HIPK2, Homo sapiens, UniProt Q9H2X6) |  | cell-free binding | 73

Set 7 — time: 6 days
SMILES: Cc1ncsc1-c1ccc(C(CO)NC(=O)C2CC(O)CN2C(=O)C(C(C)C)n2cc(-c3ccc(COc4c(-c5c(C)c(F)cc6[nH]ncc56)c(C5CC5)cc5c(N6CC7CC6CN7)nc(OC6CCOCC6)nc45)cc3)nn2)cc1 (stereo not drawn)
cell line | effect on | method | concentration | reference | viability
BXPC-3 | cell growth or viability | ATP luminescence | 30 nM |  | 97% and 106% and 115% and 117%
AsPC-1 |  | CellTiter-Glo | 1 µM | DMSO | 4.28% and 5.68% and 4.3%
HPAC | cell growth or viability | ATP luminescence | 300 pM |  | 54.1% and 68.5% and 88.2% and 70.8%
NCI-H1299 | cell growth or viability | ATP luminescence | 30 nM |  | 128% and 114% and 96.9% and 101%
COLO 320 | cell growth or viability | ATP luminescence | 10 µM |  | 80.1% and 83.2% and 103% and 94.8%
NCI-H358 | cell growth or viability | ATP luminescence | 30 nM |  | 106% and 86.8% and 90.7% and 91.2%

Set 8 — effect on: enzyme activity
Compound: NC/C(=C\F)COc1cc(Cn2c(=S)[nH]c(=O)c3[nH]ccc32)ccc1Cl
Target: Myeloperoxidase (MPO, Homo sapiens, UniProt P05164)
Chain of UniProt P05164 (whole entry, looked up): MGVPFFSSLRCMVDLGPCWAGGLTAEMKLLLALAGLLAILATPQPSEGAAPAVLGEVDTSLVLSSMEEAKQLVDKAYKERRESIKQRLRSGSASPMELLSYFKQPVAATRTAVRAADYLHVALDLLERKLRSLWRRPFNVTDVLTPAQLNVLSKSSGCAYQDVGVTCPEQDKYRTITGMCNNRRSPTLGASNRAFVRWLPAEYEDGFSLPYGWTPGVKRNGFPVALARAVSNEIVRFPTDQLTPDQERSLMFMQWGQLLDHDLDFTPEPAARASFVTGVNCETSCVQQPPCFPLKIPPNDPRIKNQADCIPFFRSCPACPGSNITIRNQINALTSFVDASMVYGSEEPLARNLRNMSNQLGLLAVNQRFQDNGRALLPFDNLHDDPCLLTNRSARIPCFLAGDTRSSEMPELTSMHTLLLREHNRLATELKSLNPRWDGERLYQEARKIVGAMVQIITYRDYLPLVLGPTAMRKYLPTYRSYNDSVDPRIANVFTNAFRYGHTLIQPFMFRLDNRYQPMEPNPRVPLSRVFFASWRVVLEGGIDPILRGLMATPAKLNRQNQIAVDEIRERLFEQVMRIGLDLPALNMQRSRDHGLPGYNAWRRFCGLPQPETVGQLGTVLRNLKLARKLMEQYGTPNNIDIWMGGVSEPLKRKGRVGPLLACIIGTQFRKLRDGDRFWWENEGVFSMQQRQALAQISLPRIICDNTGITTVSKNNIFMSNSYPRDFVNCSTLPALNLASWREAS
action | method | concentration | inhibition
 |  | 30 µM | 100%
inhibitor | fluorescence | 3.333 µM | 99%
 |  | 3.333 µM | 99.2%
 |  | 0.0005 µM | -17.1% and 14.9%
 |  | 0.0137 µM | 69.7% and 61.5%
 |  | 1.111 µM | 99.5%

Set 9 — effect on: enzyme activity; action: inhibitor; method: Ub-TR-FRET; sample: HECT domain; concentration: 33.33 µM; direction: higher = more chain formation
Target: E3 ubiquitin-protein ligase NEDD4, HECT domain (Homo sapiens, UniProt P46934)
Residues (P46934 938-1319, limits assumed): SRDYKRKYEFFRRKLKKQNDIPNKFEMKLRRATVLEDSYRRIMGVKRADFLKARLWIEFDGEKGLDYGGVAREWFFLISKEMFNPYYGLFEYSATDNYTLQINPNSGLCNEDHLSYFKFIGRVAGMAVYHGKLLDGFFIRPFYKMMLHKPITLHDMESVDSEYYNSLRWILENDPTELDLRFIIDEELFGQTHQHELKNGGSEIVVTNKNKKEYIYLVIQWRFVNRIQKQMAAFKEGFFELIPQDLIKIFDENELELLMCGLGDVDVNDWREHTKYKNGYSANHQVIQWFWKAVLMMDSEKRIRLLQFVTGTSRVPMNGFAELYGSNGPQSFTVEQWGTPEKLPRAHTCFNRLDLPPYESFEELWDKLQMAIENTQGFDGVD
Structure (SMILES) | ubiquitin chain formation AUC
CCOC(=O)/C=C/CNCCCCN1c2cc(Cl)ccc2CCc2cnn(C)c21.O=C(O)/C=C\C(=O)O | 12000 a.u. and 6640 a.u. and 6780 a.u. and 7480 a.u. and 12100 a.u. and 11700 a.u.
CC(C)ONC(=O)/C=C/CNCCCCN1c2ccccc2CCc2ccc(Cl)cc21.O=C(O)/C=C\C(=O)O | 5560 a.u. and 5400 a.u. and 5240 a.u. and 5440 a.u. and 5210 a.u. and 5490 a.u.
CONC(=O)/C=C/CNCCCCN1c2ccccc2CCc2ccc(Cl)cc21.O=C(O)/C=C\C(=O)O | 7260 a.u. and 6580 a.u. and 6860 a.u. and 5970 a.u. and 5960 a.u. and 6350 a.u.
CCOC(=O)/C=C/CNCCCN1c2ccccc2CCc2ccc(Cl)cc21 | 6070 a.u. and 6210 a.u. and 5470 a.u.
CCOC(=O)/C=C/CN(CCCCN1c2ccccc2CCc2ccc(Cl)cc21)C(C)C.O=C(O)/C=C\C(=O)O | 11700 a.u. and 11500 a.u. and 11000 a.u. and 14900 a.u. and 15800 a.u. and 14800 a.u.
COC(=O)CCCNCCCN1c2ccccc2CCc2ccc(Cl)cc21.COC(=O)CCCNCCCN1c2ccccc2CCc2ccc(Cl)cc21.O=C(O)/C=C/C(=O)O | 99700 a.u. and 91800 a.u. and 98500 a.u.
CCOC(=O)/C=C/CNCCCCN1c2cc(Cl)ccc2C(=O)N(C)c2ccccc21.O=C(O)/C=C\C(=O)O | 8320 a.u. and 8180 a.u. and 8770 a.u.
Cl.NC(=O)/C=C/CNCCCN1c2ccccc2CCc2ccc(Cl)cc21 | 100000 a.u. and 97800 a.u. and 92900 a.u.
CNC(=O)/C=C/CNCCCCN1c2ccccc2CCc2ccc(Cl)cc21.Cl | 21400 a.u. and 29800 a.u. and 19900 a.u. and 39200 a.u. and 30300 a.u. and 23400 a.u.
CN(C)C/C=C/C(=O)NCCCN1c2ccccc2CCc2ccc(Cl)cc21 | 101000 a.u. and 99500 a.u. and 100000 a.u.

Excerpt of the above (set 4):
target | concentration | inhibition
CDK9 | 10 µM | 87.7%
CDK9 | 13.7 nM | -3.6%
CDK9 | 41.2 nM | -1.2%
CDK13 | 13.7 nM | -4.1%
CDK13 | 10 µM | 87%
CDK2 | 500 pM | 5.4%
CDK2 | 1.5 nM | 2.4%
CDK13 | 41.2 nM | 8.2%
